{"data": "Measured values of several laboratories", "note": "± marks the error that the study gave."}
{"assay": "radio-TLC", "test system": "aqueous buffer", "conditions": "5 d, pH 8.5, 37 °C, 89Zr-labelled complex, added: DTPA 1000-fold excess", "measurement": "intact complex", "value": "85.5 ± 0.9%", "Structure (SMILES)": "CC(=O)N([O-])CCCCCNC(=O)CCC(=O)N([O-])CCCCCNC(=O)CCC(=O)N([O-])CCCCCN.[89Zr+4]"}
{"assay": "radio-TLC", "test system": "human serum", "conditions": "7 days, run 2", "measurement": "intact complex", "value": "97.7%", "Structure (SMILES)": "CN([O-])C(=O)CN1CCN(CC(=O)N(C)[O-])CCN(CC(=O)N(C)[O-])CC1.[89Zr+4]"}
{"assay": "radio-TLC", "test system": "mouse serum", "conditions": "18 h, 37 °C", "measurement": "intact compound", "value": "97.1%", "Structure (SMILES)": "COc1ccc2c(c1)C(C)(C)C(/C=C/C1=C(Oc3ccc(C(=O)NCCCCOc4cc(CN(Cc5ccccn5)Cc5ccccn5)cc(CN(Cc5ccccn5)Cc5ccccn5)c4)cc3)C(=C/C=C3/N(CCCCS(=O)(=O)[O-])c4ccc(OC)cc4C3(C)C)CCC1)=[N+]2CCCCS(=O)(=O)[O-].O=[N+]([O-])[O-].O=[N+]([O-])[O-].[99Tc+].[C-]#[O+].[C-]#[O+].[C-]#[O+].[Zn+2]"}
{"assay": "radio-HPLC", "test system": "PBS", "conditions": "240 min, pH 7.4", "measurement": "intact compound", "value": "80.4 ± 3%", "Structure (SMILES)": "C[N+](C)(CCOCCOCCOCCOCCOCCOCCOCCNC(=S)Nc1ccc(CC2CN(CC(=O)[O-])CCN(CC(=O)[O-])CCN2CC(=O)[O-])cc1)C[c-]1cccc1.[64Cu+2].[Fe+2].c1cc[cH-]c1 (stereo not drawn)"}
{"assay": "radio-TLC", "test system": "human serum", "conditions": "7 days, run 1", "measurement": "intact complex", "value": "86.9%", "Structure (SMILES)": "CN([O-])C(=O)CN1CCN(CC(=O)N(C)[O-])CCN(Cc2ccccn2)CC1.[89Zr+4]"}
{"assay": "HPLC", "test system": "human serum", "conditions": "0 h, pH 7, 37 °C", "measurement": "intact radiolabelled complex", "value": "100%", "Structure (SMILES)": "O=C([O-])CN1CCN(CC(=O)[O-])CCN(CC(CCCc2ccccc2[N+](=O)[O-])N(CC(=O)[O-])CC(=O)[O-])CC1.[177Lu+3] (stereo not drawn)"}
{"test system": "DMSO-d6", "conditions": "1 week", "measurement": "intact compound", "value": "58%", "Structure (SMILES)": "Cc1ccc(C(C)C)cc1.O=C(N=P(c1ccccc1)(c1ccccc1)c1ccccc1)c1[c-]cccc1.[Cl-].[Ru+2]"}
{"assay": "radio-TLC", "test system": "human serum", "conditions": "2 days, run 2", "measurement": "intact complex", "value": "100%", "Structure (SMILES)": "CN([O-])C(=O)CN1CCNCCN(CC(=O)N(C)[O-])CC1.[89Zr+4]"}
{"assay": "radio-TLC", "test system": "aqueous buffer", "conditions": "5 d, pH 7, 37 °C, 89Zr-labelled complex, added: DTPA 100-fold excess", "measurement": "intact complex", "value": "98.3 ± 0.5%", "Structure (SMILES)": "CN(O)C(=O)CCC(=O)NCCCN(CCCCN(CCCNC(=O)CCC(=O)N(C)O)C(=O)CCC(=O)N(C)O)C(=O)CCC(=O)N(C)O.[89Zr]"}
{"note": "A few entries again:"}
{"assay": "radio-TLC", "test system": "aqueous buffer", "conditions": "5 d, pH 8.5, 37 °C, 89Zr-labelled complex, added: DTPA 1000-fold excess", "measurement": "intact complex", "value": "85.5 ± 0.9%", "Structure (SMILES)": "CC(=O)N([O-])CCCCCNC(=O)CCC(=O)N([O-])CCCCCNC(=O)CCC(=O)N([O-])CCCCCN.[89Zr+4]"}
